# Experimental data of several laboratories.
# Each line is one published result; not all experiments were run side by side. Numbers after ± are the reported error.
# Sctr: Sctr (Rattus norvegicus, UniProt P23811)
# Chain of UniProt P23811 (whole entry, looked up): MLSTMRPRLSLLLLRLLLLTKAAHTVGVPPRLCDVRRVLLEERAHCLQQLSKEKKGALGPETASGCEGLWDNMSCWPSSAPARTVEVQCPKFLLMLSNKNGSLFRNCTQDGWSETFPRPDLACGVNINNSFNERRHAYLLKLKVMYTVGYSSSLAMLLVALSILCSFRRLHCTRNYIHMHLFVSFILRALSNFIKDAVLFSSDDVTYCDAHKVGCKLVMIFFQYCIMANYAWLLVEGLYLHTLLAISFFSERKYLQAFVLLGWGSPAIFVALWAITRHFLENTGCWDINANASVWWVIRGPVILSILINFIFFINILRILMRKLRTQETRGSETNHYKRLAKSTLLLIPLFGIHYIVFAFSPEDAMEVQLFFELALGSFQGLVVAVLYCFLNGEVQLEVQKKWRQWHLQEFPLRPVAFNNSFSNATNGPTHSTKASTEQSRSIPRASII
# GRPR: Gastrin-releasing peptide receptor (GRPR, Homo sapiens, UniProt P30550)
# Chain of UniProt P30550 (whole entry, looked up): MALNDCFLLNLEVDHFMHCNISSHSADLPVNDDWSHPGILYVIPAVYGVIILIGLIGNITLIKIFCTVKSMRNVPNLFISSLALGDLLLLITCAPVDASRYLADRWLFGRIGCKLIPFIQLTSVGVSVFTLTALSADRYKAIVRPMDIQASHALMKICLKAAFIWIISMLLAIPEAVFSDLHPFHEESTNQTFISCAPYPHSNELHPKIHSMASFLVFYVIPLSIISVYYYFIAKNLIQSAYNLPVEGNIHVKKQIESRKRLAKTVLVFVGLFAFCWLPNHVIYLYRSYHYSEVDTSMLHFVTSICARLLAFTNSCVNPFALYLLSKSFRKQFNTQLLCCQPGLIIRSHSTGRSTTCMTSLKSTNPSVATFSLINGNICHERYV
# Chain of UniProt P30518 (whole entry, looked up): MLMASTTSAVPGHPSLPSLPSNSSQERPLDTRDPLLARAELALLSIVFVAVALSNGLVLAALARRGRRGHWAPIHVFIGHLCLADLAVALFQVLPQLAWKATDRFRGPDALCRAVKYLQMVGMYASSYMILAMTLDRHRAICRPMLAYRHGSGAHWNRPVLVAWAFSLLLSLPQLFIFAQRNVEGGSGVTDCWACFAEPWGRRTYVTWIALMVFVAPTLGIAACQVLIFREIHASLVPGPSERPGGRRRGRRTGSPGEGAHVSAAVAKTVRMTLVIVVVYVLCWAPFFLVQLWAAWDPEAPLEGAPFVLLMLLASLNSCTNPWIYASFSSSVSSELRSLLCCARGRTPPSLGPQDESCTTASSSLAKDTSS
# Chain of UniProt Q1MX30 (whole entry, looked up): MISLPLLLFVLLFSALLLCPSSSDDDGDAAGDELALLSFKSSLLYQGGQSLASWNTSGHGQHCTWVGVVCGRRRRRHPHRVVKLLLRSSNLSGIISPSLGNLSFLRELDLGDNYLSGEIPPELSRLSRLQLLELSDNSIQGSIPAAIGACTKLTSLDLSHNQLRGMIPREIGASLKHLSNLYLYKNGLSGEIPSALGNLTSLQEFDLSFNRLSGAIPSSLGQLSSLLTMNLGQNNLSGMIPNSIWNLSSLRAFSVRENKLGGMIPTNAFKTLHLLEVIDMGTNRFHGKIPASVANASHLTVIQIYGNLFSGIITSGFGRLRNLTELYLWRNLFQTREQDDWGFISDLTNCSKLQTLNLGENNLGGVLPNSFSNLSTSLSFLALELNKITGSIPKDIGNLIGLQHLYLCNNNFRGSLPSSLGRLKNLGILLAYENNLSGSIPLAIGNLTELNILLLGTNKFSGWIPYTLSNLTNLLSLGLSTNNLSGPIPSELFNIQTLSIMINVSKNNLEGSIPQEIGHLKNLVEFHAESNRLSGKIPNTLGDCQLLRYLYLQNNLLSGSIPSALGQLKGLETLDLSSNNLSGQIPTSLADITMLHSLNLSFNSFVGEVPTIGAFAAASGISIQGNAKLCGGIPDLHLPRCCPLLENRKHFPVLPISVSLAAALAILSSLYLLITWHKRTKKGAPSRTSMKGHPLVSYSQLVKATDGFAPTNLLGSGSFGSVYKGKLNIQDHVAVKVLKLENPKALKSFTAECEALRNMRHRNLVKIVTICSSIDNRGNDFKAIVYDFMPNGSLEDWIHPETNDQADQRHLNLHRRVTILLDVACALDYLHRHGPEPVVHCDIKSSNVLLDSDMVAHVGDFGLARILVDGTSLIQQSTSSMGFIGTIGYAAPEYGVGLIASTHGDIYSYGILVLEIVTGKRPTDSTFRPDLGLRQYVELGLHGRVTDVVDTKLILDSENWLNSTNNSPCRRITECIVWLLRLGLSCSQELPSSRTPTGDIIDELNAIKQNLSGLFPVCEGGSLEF
# Chain of UniProt P34972 (whole entry, looked up): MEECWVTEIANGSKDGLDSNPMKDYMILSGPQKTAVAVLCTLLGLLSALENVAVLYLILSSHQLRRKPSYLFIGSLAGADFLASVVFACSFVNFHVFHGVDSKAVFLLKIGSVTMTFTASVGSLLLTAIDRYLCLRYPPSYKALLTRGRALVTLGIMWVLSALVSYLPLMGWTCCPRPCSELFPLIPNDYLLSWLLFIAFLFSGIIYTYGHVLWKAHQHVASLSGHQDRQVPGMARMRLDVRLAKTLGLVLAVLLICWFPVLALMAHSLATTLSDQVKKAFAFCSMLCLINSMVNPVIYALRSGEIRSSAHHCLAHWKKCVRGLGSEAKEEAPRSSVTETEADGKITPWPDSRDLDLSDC
# Chain of UniProt P18505 (whole entry, looked up): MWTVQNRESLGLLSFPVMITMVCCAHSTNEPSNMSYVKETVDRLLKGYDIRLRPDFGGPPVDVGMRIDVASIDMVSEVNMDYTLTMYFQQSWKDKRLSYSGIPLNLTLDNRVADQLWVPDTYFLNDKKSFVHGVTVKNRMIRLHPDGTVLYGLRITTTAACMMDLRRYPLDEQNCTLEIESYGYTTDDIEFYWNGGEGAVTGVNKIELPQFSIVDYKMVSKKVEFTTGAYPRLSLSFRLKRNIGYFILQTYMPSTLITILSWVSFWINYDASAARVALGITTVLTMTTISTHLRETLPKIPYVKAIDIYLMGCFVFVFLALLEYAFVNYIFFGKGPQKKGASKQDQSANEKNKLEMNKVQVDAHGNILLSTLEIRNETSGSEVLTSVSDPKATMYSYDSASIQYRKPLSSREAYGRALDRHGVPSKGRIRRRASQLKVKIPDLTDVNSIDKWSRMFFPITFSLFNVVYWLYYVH
# Chain of UniProt P47869 (whole entry, looked up): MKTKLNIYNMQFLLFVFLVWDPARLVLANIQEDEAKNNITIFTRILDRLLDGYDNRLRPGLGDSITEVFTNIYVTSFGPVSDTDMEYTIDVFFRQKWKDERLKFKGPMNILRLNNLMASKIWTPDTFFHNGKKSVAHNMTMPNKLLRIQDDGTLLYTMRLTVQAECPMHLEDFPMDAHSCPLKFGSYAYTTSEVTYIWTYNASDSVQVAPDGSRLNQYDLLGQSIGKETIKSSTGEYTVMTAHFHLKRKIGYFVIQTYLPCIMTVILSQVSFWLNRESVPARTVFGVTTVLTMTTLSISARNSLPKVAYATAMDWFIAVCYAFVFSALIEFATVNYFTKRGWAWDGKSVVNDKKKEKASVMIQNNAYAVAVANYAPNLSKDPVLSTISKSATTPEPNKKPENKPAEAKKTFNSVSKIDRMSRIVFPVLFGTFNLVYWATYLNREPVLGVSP
# Chain of UniProt O15552 (whole entry, looked up): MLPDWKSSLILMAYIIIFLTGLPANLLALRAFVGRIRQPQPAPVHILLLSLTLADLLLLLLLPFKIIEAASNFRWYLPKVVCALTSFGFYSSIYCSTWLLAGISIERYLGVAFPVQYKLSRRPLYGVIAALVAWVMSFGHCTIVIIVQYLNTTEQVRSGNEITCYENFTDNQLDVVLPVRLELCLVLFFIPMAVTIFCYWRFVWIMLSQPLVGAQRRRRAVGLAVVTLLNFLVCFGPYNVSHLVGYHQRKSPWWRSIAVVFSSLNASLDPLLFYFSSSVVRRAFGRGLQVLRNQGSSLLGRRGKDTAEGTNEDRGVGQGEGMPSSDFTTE
# Chain of UniProt P32241 (whole entry, looked up): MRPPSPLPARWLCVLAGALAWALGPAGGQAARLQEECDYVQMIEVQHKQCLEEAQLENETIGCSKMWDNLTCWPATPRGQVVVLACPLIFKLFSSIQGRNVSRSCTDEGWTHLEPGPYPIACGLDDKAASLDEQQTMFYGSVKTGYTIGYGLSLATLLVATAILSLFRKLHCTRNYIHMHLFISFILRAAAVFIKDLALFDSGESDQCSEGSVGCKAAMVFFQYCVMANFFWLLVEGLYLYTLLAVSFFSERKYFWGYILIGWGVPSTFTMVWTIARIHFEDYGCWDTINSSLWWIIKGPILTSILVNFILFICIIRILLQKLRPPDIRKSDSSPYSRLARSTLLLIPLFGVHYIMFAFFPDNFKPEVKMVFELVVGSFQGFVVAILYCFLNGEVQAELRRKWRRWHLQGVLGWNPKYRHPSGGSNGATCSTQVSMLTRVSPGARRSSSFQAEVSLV
# Chain of UniProt P18507 (whole entry, looked up): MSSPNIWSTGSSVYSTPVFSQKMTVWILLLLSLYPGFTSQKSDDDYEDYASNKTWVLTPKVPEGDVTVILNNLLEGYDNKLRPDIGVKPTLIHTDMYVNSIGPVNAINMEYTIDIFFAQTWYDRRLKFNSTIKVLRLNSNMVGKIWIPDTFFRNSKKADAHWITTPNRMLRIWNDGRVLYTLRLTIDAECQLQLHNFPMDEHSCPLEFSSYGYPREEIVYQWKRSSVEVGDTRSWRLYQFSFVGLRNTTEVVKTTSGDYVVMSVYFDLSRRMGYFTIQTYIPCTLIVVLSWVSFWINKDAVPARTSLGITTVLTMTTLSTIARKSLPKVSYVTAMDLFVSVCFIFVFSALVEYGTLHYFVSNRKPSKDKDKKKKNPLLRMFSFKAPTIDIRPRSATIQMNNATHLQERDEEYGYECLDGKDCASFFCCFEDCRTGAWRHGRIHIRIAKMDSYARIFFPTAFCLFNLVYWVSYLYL
Compound,target,test,system,setting,how to read,EC50 [µM]
CC(C)C[C@H](NC(=O)CNC(=O)[C@H](CCC(N)=O)NC(=O)[C@H](CC(C)C)NC(=O)[C@H](CC(C)C)NC(=O)[C@H](CCCNC(=N)N)NC(=O)[C@H](CCC(N)=O)NC(=O)[C@H](CC(C)C)NC(=O)[C@H](CCCNC(=N)N)NC(=O)[C@H](C)NC(=O)[C@H](CO)NC(=O)[C@H](CC(=O)O)NC(=O)[C@H](CCC(N)=O)NC(=O)[C@H](CC(C)C)NC(=O)[C@H](CCCNC(=N)N)NC(=O)[C@H](CO)NC(=O)[C@H](CC(C)C)NC(=O)[C@H](CCC(=O)O)NC(=O)[C@H](C)NC(=O)[C@@H](NC(=O)[C@H](Cc1ccccc1)NC(=O)[C@@H](NC(=O)CNC(=O)[C@H](CC(=O)O)NC(=O)[C@H](CO)NC(=O)[C@@H](N)Cc1c[nH]cn1)[C@@H](C)O)[C@@H](C)O)C(=O)N[C@H](C(N)=O)C(C)C,Sctr,"cAMP production, agonist",CHO-SecR,"30 min, 37 °C, added: 1 mM IBMX",,0.0061 ± 0.0014
CC(C)[C@H](NC(=O)[C@@H](N)Cc1c[nH]cn1)C(=O)NCC(=O)NCC(=O)NCC(=O)N[C@@H](CC(=O)O)C(=O)N[C@@H](Cc1ccc(OS(=O)(=O)O)cc1)C(=O)N1CCC[C@H]1C(=O)N1CCC[C@H]1C(=O)N1CCC[C@H]1C(=O)NCC(=O)N[C@@H](C)C(=O)N[C@@H](CC(N)=O)C(=O)N1CCC[C@H]1C(=O)N[C@@H](CCCCN)C(=O)N[C@@H](Cc1c[nH]cn1)C(=O)N[C@@H](CC(=O)O)C(=O)N1CCC[C@H]1C(=O)N1CCC[C@H]1C(=O)N1CCC[C@H]1C(=O)N[C@@H](CCCNC(=N)N)C(=O)O,"Receptor kinase-like protein Xa21 (XA21, Oryza sativa subsp. indica, UniProt Q1MX30)","ROS production, agonist, L-012 chemiluminescence","Oryza sativa, Kitaake Ubi::XA21, leaves",3 h,,~0.02
CC[C@H](C)[C@H](NC(=O)CNC(=O)[C@H](CC(=O)O)NC(=O)[C@H](CO)NC(=O)C=Cc1c[nH]cn1)C(=O)N[C@@H](Cc1ccccc1)C(=O)N[C@H](C(=O)N[C@@H](CC(=O)O)C(=O)N[C@@H](CO)C(=O)N[C@@H](Cc1ccc(O)cc1)C(=O)N[C@@H](CO)C(=O)N[C@@H](CCCNC(=N)N)C(=O)N[C@@H](Cc1ccc(O)cc1)C(=O)N[C@@H](CCCNC(=N)N)C(=O)N[C@@H](CCCCN)C(=O)N[C@@H](CCC(N)=O)C(=O)N[C@@H](CCSC)C(=O)N[C@@H](C)C(=O)N[C@H](C(=O)N[C@@H](CCCCN)C(=O)N[C@@H](CCCCN)C(=O)N[C@@H](C)C(=O)N[C@@H](CC(C)C)C(=O)N[C@@H](C)C(=O)N[C@@H](C)C(=O)N[C@H](C(=O)N[C@@H](CC(C)C)C(=O)NCC(=O)N[C@@H](CCCCN)C(=O)N[C@@H](CCCNC(=N)N)C(=O)N[C@@H](Cc1ccc(O)cc1)C(=O)N[C@@H](CCCCN)C(=O)N[C@@H](CCC(N)=O)C(=O)N[C@@H](CCCNC(=N)N)C(=O)N[C@H](C(=O)N[C@@H](CCCCN)C(=O)N[C@@H](CC(N)=O)C(=O)N[C@@H](CCCCN)C(N)=O)C(C)C)C(C)C)C(C)C)[C@@H](C)O,"VIPR1 (Homo sapiens, UniProt P32241)","cAMP, agonist, radiometric",,,,0.069
CC(C)C[C@H](NC(=O)CNC(=O)[C@H](CCC(N)=O)NC(=O)[C@H](CC(C)C)NC(=O)[C@H](CC(C)C)NC(=O)[C@H](C)NC(=O)[C@H](CCC(N)=O)NC(=O)[C@H](CC(C)C)NC(=O)[C@H](CCCNC(=N)N)NC(=O)[C@H](C)NC(=O)[C@H](CO)NC(=O)[C@H](CC(=O)O)NC(=O)[C@H](CCC(N)=O)NC(=O)[C@H](CC(C)C)NC(=O)[C@H](CCCNC(=N)N)NC(=O)[C@H](CO)NC(=O)[C@H](CC(C)C)NC(=O)[C@H](CCC(=O)O)NC(=O)[C@H](CO)NC(=O)[C@@H](NC(=O)[C@H](Cc1ccccc1)NC(=O)[C@@H](NC(=O)CNC(=O)[C@H](CC(=O)O)NC(=O)[C@H](CO)NC(=O)[C@@H](N)Cc1c[nH]cn1)[C@@H](C)O)[C@@H](C)O)C(=O)N[C@H](C(N)=O)C(C)C,Sctr,"cAMP production, agonist",CHO-SecR,"30 min, 37 °C, added: 1 mM IBMX",,0.0002 ± 3e-05
COc1ccc(-c2cc(C(F)(F)F)nc(S(=O)(=O)CCCC(=O)Nc3ccc(F)cc3F)n2)cc1OC,"AVPR2 (Homo sapiens, UniProt P30518)","cAMP accumulation, positive allosteric modulator",CHO-K1 overexpressing AVPR2,added: vasopressin at EC20,,19 ± 17
CC#CC(=O)O,"FFAR2 (Homo sapiens, UniProt O15552)",agonist,,,,2090
CC(C)C[C@@H]1NC(=O)[C@H](Cc2c[nH]cn2)NC(=O)[C@@H](C)NC(=O)[C@H](C(C)C)NC(=O)[C@H](C)NC(=O)[C@H](Cc2c[nH]c3ccccc23)NC(=O)[C@H](CCC(N)=O)NC(=O)[C@H](N)CSSC[C@@H](C(N)=O)NC1=O,GRPR,"inositol phosphate, agonist",,,,0.1
CCOC(=O)[C@](CC)(CCCSCCOCCOCCNC(=O)c1ccc(C(=O)[O-])c(C2=C3C=CC(=[N+](C)C)C=C3[Si](C)(C)c3cc(N(C)C)ccc32)c1)NC(=O)c1ccc(C2CC2)c(Cc2ccc(F)cc2)n1,"CNR2 (Homo sapiens, UniProt P34972)","cAMP, agonist",,,,0.067
CSCC[C@H](NC(=O)[C@H](Cc1ccccc1)NC(=O)[C@H](Cc1c[nH]cn1)NC(=O)CNC(=O)[C@@H](NC(=O)[C@H](C)NC(=O)[C@H](Cc1c[nH]c2ccccc12)NC(=O)[C@H](CC(C)C)NC(=O)[C@@H]1CCC(=O)N1)[C@@H](C)O)C(N)=O,GRPR,"inositol phosphate generation, agonist",BALB/3T3 transfected with human GRPR,"45 min, 37 °C",baseline: 1 µM GRP,0.00977 ± 0.00029
CC[C@H](C)NC(=O)/C(=C\Nc1ccc(Cl)cc1)C(=O)c1ccccc1Cl,"Gamma-aminobutyric acid receptor subunit alpha-2/beta-1/gamma-2 (Homo sapiens, UniProt P18505+P18507+P47869)","GABA current potentiation, positive modulator, two-electrode voltage clamp",Xenopus laevis oocytes,"30 s preincubation, added: GABA EC10",,0.95 ± 0.14
